{"data": "Assay results of several laboratories", "note": "Each numbered part is a random draw from the data of one study; scales do not carry over between parts.", "UniProt P10721, sequence (whole entry, unmodified, looked up)": "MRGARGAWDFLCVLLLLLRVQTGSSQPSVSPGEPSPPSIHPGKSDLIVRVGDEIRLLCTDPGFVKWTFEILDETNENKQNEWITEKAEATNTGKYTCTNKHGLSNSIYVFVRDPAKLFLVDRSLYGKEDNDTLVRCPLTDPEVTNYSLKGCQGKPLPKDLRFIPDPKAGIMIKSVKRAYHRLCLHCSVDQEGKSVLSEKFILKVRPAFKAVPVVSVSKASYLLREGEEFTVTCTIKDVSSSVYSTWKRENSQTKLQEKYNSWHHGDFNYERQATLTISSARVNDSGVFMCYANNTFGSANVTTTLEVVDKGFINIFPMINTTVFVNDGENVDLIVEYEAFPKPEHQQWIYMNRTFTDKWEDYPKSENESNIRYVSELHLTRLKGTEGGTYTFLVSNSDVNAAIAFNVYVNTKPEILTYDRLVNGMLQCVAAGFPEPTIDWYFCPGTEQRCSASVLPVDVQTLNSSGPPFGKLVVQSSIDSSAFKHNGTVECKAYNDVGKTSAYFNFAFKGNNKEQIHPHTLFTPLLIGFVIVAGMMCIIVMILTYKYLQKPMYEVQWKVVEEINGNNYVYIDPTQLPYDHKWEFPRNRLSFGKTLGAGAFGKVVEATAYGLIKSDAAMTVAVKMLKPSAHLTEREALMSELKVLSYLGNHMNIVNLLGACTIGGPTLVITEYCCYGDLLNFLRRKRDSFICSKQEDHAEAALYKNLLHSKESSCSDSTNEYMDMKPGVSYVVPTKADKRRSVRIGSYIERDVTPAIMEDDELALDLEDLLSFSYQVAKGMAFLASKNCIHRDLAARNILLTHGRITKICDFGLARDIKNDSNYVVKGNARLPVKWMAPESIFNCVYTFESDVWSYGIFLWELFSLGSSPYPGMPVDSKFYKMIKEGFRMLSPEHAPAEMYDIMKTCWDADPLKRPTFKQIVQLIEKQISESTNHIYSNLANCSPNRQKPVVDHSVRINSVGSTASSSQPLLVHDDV", "UniProt Q07912, sequence (whole entry, looked up)": "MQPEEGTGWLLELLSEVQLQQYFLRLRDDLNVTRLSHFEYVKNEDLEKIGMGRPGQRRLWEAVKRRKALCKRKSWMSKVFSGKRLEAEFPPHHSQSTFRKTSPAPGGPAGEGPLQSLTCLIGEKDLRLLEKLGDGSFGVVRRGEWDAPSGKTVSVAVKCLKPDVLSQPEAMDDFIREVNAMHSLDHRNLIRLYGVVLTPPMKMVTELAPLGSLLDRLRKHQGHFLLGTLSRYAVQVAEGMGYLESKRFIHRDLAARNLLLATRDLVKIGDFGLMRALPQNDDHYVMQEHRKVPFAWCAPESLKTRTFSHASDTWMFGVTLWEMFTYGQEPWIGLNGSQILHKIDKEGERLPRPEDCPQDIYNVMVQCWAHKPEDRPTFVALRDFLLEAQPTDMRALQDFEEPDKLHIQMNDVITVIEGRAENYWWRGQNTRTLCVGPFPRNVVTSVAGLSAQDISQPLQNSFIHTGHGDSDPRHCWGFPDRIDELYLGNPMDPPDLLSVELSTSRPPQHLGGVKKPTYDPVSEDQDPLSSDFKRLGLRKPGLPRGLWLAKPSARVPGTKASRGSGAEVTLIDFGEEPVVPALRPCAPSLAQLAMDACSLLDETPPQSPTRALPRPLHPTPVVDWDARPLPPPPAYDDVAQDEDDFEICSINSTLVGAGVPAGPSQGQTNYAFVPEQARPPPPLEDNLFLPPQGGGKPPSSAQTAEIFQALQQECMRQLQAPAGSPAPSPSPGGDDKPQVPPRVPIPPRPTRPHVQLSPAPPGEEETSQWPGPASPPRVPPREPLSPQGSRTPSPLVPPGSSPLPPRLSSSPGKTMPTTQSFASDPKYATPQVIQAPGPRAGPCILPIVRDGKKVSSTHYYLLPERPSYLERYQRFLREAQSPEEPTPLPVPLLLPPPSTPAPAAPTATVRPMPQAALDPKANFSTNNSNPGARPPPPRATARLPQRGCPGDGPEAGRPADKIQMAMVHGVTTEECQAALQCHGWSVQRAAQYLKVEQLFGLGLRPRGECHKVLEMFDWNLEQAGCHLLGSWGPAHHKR", "UniProt Q9C098, sequence (whole entry, looked up)": "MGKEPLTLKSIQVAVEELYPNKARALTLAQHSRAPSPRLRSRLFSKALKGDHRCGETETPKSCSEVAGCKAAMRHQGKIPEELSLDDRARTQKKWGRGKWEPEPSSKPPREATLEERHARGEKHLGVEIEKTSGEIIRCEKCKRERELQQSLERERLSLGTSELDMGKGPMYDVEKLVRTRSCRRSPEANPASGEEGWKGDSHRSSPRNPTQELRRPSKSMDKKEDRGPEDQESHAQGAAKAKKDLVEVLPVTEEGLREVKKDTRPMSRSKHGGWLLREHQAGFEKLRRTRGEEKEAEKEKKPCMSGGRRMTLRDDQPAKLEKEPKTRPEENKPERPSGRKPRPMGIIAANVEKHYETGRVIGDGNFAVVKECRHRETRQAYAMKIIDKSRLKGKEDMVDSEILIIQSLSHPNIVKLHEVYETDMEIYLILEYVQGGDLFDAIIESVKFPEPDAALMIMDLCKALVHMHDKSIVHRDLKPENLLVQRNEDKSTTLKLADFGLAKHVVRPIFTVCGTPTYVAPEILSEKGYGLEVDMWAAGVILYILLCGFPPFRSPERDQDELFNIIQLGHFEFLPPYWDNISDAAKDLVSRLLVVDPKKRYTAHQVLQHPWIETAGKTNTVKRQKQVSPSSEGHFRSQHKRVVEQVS", "UniProt Q13188, sequence (whole entry, looked up)": "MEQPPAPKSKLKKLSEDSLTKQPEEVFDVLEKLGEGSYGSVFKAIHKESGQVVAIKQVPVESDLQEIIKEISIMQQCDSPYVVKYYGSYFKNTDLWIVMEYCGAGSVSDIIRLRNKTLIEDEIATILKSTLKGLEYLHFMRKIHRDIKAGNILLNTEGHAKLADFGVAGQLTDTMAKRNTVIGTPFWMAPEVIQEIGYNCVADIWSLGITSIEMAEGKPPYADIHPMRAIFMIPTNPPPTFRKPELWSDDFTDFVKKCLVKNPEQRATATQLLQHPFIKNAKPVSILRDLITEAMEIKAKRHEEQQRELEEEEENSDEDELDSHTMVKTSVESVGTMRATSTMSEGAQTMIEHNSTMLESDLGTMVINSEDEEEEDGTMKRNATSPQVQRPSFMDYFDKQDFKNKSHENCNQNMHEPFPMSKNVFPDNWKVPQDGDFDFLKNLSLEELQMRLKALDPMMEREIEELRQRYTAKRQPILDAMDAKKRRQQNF", "UniProt O75676, sequence (whole entry, looked up)": "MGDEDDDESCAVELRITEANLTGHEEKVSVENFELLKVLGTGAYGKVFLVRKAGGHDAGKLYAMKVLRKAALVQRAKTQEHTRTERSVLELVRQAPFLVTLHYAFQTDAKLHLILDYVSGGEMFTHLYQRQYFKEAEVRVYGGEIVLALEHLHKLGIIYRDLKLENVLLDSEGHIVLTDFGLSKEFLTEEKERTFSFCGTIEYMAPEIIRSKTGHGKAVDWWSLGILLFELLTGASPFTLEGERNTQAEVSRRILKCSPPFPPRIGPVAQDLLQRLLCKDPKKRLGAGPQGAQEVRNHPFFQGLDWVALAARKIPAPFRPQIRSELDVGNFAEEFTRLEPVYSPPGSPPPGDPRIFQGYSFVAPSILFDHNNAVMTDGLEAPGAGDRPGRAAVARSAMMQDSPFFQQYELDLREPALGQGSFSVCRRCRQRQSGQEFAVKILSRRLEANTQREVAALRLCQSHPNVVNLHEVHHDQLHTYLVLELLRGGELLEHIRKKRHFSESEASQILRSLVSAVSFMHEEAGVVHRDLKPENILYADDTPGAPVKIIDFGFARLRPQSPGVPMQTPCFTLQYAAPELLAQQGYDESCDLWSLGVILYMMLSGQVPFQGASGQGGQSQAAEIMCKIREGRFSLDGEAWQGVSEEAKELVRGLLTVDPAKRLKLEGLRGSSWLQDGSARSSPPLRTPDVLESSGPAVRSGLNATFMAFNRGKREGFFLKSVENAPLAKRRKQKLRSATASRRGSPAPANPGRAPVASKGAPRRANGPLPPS", "UniProt Q13043, sequence (whole entry, looked up)": "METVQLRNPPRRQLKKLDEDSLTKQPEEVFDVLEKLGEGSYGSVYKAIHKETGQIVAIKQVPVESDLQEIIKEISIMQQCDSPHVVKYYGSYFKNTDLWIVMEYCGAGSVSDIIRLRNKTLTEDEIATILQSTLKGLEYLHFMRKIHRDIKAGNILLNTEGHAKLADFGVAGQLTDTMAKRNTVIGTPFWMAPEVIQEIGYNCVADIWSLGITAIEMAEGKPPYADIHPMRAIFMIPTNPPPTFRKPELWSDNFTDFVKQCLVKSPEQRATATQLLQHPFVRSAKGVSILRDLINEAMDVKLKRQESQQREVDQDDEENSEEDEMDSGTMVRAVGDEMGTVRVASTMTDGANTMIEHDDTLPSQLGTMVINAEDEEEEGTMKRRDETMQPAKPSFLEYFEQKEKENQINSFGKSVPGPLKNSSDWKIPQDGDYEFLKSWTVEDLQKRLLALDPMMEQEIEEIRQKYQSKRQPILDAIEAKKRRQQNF"}
{"data": "Series 1", "Structure (SMILES)": "CN(C)C(=O)Cn1cc(-c2nc([C@@](C)(c3ccc(-c4cnc(N)nc4)cc3)C3CC3)no2)cn1", "read-out": "cell-free assay", "technique": "competition with immobilised ligand", "tested at": "1 µM"}
{"target": "STK4 (Homo sapiens, UniProt Q13043)", "remaining binding": "90%"}
{"target": "TNK2 (Homo sapiens, UniProt Q07912)", "remaining binding": "91%"}
{"target": "DCLK3 (Homo sapiens, UniProt Q9C098)", "remaining binding": "96%"}
{"target": "STK3 (Homo sapiens, UniProt Q13188)", "remaining binding": "100%"}
{"target": "Ribosomal protein S6 kinase alpha-4, C-terminal kinase domain (RPS6KA4, Homo sapiens, UniProt O75676)", "remaining binding": "72%"}
{"target": "KIT (Homo sapiens, UniProt P10721, T670I/V559D)", "remaining binding": "81%"}
{"target": "SGK3 (Homo sapiens, UniProt Q96BR1)", "remaining binding": "76%"}
{"target": "Tyrosine-protein kinase ABL1, phosphorylated (ABL1, Homo sapiens, UniProt P00519, Q252H)", "remaining binding": "83%"}
{"data": "Series 2", "target": "FOXO3, forkhead domain (mouse, UniProt Q9WVH4, residues 31-263)", "technique": "protein-binding microarray", "molecule type": "hairpin DNA", "sample": "in vitro", "tested at": "not given", "setting": "whole hairpin DNA, median over replicate spots", "relative to": "not given", "reading": "higher = stronger binding", "all sequences stand within": "GAGGCCA … TGGCCTCACACTC", "UniProt Q9WVH4, sequence (31-263, looked up)": "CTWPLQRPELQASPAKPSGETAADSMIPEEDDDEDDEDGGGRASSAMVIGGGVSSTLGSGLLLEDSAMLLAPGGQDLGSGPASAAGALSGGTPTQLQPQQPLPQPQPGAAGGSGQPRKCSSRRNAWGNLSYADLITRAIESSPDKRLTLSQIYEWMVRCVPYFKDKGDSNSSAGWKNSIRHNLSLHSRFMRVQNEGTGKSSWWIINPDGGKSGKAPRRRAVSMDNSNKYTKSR"}
{"Strand": "TGGAAACAACGCCTCCTGGCGTTGTTTCCA", "median fluorescence": "4470 a.u."}
{"Strand": "TTCAAACAACGCCTCCTGGCGTTGTTTGAA", "median fluorescence": "3900 a.u."}
{"Strand": "TGTAACCCGCGCCTCCTGGCGCGGGTTACA (5mC at 15)", "median fluorescence": "4350 a.u."}
{"Strand": "TGTAAACAACGCCTCCTGGCGTTGTTTACA (5mC at 17)", "median fluorescence": "5720 a.u."}
{"Strand": "CGCAAACAACGCCTCCTGGCGTTGTTTGCG", "median fluorescence": "5790 a.u."}
{"Strand": "TGCAAACATCGCCTCCTGGCGATGTTTGCA", "median fluorescence": "4750 a.u."}
{"Strand": "TGTATACAACGCCTCCTGGCGTTGTATACA", "median fluorescence": "4040 a.u."}
{"Strand": "TCGAACCAACGCCTCCTGGCGTTGGTTCGA (5mC at 9)", "median fluorescence": "4270 a.u."}
{"data": "Series 3", "target": "Eukaryotic initiation factor 4A-I (EIF4A1, Homo sapiens, UniProt P60842, residues 1-406, full length assumed)", "technique": "RNA Bind-n-Seq", "molecule type": "RNA", "sample": "in vitro", "tested at": "not given", "setting": "4-mer, random 30-nt RNA, single round", "with": "RocA, ADP, phosphate", "relative to": "input library", "reading": "higher = stronger binding", "UniProt P60842, sequence (whole entry, looked up)": "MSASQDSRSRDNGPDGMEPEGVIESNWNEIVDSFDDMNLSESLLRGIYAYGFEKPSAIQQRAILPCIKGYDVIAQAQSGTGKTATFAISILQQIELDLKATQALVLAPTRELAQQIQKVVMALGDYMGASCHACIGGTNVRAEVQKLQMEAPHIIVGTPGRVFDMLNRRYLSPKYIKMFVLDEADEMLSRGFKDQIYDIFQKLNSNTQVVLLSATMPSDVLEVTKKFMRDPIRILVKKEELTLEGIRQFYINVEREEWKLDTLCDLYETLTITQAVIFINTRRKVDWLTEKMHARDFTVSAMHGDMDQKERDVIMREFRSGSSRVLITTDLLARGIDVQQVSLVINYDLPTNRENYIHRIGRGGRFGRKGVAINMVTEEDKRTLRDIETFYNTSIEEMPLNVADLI"}
{"Strand": "UGCA", "4-mer enrichment": "0.759 fold"}
{"Strand": "UCAG", "4-mer enrichment": "0.798 fold"}
{"Strand": "AAGU", "4-mer enrichment": "1.27 fold"}
{"Strand": "GUAG", "4-mer enrichment": "1.19 fold"}
{"Strand": "CGCU", "4-mer enrichment": "0.576 fold"}
{"Strand": "CCUA", "4-mer enrichment": "0.604 fold"}
{"Strand": "UUGG", "4-mer enrichment": "1.2 fold"}
{"Strand": "GGCA", "4-mer enrichment": "0.806 fold"}
{"data": "Series 4", "target": "TAR DNA-binding protein 43, full length, His tag (TARDBP, Homo sapiens, UniProt Q13148, residues 1-414)", "technique": "RNA Bind-n-Seq", "molecule type": "RNA", "sample": "in vitro", "tested at": "20 nM", "setting": "6-mer, flanks averaged, single round", "with": "150 mM LiCl", "relative to": "input library", "reading": "higher = stronger binding"}
{"Strand": "CUGUGC", "6-mer enrichment (R)": 0.99}
{"Strand": "UUUUCA", "6-mer enrichment (R)": 1.09}
{"Strand": "CUCUGC", "6-mer enrichment (R)": 0.878}
{"Strand": "GGACCA", "6-mer enrichment (R)": 0.93}
{"Strand": "CGAUAG", "6-mer enrichment (R)": 0.851}
{"Strand": "GACAAA", "6-mer enrichment (R)": 0.871}
{"Strand": "AGCGAA", "6-mer enrichment (R)": 0.9}
{"Strand": "CUCUUA", "6-mer enrichment (R)": 0.909}
{"note": "For quick reference, copied from above (series 4):"}
{"Strand": "GGACCA", "6-mer enrichment (R)": 0.93}
{"Strand": "CGAUAG", "6-mer enrichment (R)": 0.851}
{"Strand": "GACAAA", "6-mer enrichment (R)": 0.871}
{"Strand": "AGCGAA", "6-mer enrichment (R)": 0.9}
